{"data": "Measured values gathered from unrelated publications"}
{"Compound": "CNC(C)C1CCC(N)C(OC2C(N)CC(N)C(OC3OCC(C)(O)C(NC)C3O)C2O)O1 (centres unmarked)", "organism": "Pseudomonas aeruginosa", "test system": "clinical isolate RKI-No_253/15", "MIC": "> 8 µg/mL"}
{"Compound": "CC(=O)NC[C@H]1CN(c2ccc(N3CCOCC3)c(F)c2)C(=O)O1", "organism": "Enterococcus hirae", "test system": "ATCC 10541", "MIC": "2.96 µM"}
{"Compound": "C[C@@H](O)[C@H]1C(=O)N2C(C(=O)O)=C(S[C@@H]3CN[C@H](C(=O)N(C)C)C3)[C@H](C)[C@H]12", "organism": "Klebsiella oxytoca", "assay": "broth microdilution", "test system": "clinical isolate RKI 609/16", "MIC": "16 µg/mL"}
{"Compound": "FC(F)(F)Oc1ccc(OCCn2c(CNCC34CC5CC(CC(C5)C3)C4)nc3ccccc32)cc1", "organism": "Streptococcus pneumoniae", "test system": "ATCC 49619", "MIC": "8 µg/mL"}
{"Compound": "CC1(C)S[C@@H]2[C@H](NC(=O)[C@H](N)c3ccccc3)C(=O)N2[C@H]1C(=O)O", "organism": "Serratia fonticola", "test system": "clinical isolate RKI-No_517/16", "MIC": "> 16 µg/mL"}
{"Compound": "CC[C@H](C)CCCCC(=O)N[C@@H](CCN)C(=O)N[C@H](C(=O)N[C@@H](CCN)C(=O)N[C@H]1CCNC(=O)[C@H]([C@@H](C)O)NC(=O)[C@H](CCN)NC(=O)[C@H](CCN)NC(=O)[C@H](CC(C)C)NC(=O)[C@@H](CC(C)C)NC(=O)[C@H](CCN)NC1=O)[C@@H](C)O", "organism": "Staphylococcus simulans", "assay": "broth microdilution", "test system": "22, cation-adjusted Mueller-Hinton broth", "MIC": "3 µM"}
{"Compound": "CC(C)(C)CNCc1nc2ccccc2n1CCOc1ccccc1", "organism": "Streptococcus pneumoniae", "test system": "ATCC 49619", "MIC": "8 µg/mL"}
{"Compound": "CN[C@H](CC(C)C)C(=O)N[C@H]1C(=O)N[C@@H](CC(N)=O)C(=O)N[C@H]2C(=O)N[C@H]3C(=O)N[C@H](C(=O)N[C@H](C(=O)O)c4cc(O)cc(O)c4-c4cc3ccc4O)[C@H](O)c3ccc(c(Cl)c3)Oc3cc2cc(c3O[C@@H]2O[C@H](CO)[C@@H](O)[C@H](O)[C@H]2O[C@H]2C[C@](C)(N)[C@H](O)[C@H](C)O2)Oc2ccc(cc2Cl)[C@H]1O", "organism": "Kocuria sp.", "assay": "broth microdilution", "test system": "sugar glider pouch or skin isolate, cation-adjusted Mueller-Hinton broth", "conditions": "16 h, 37 °C, above 90% inhibition", "MIC": "1 µg/mL"}
{"Compound": "CCCCCCCCCC(=O)N[C@@H](Cc1c[nH]c2ccccc12)C(=O)N[C@H](CC(N)=O)C(=O)N[C@@H](CC(=O)O)C(=O)N[C@@H]1C(=O)NCC(=O)N[C@@H](CCCN)C(=O)N[C@@H](CC(=O)O)C(=O)N[C@H](C)C(=O)N[C@@H](CC(=O)O)C(=O)NCC(=O)N[C@H](CO)C(=O)N[C@@H]([C@H](C)CC(=O)O)C(=O)N[C@@H](CC(=O)c2ccccc2N)C(=O)O[C@@H]1C", "organism": "Staphylococcus aureus", "test system": "SH1000", "conditions": "with: menaquinone-4, molar ratio 2", "MIC": "1 µg/mL"}
{"Compound": "CCN1CCN(C(=O)N[C@@H](C(=O)N[C@@H]2C(=O)N3[C@@H]2SC(C)(C)[C@@H]3C(=O)O)c2ccccc2)C(=O)C1=O", "organism": "Escherichia coli", "assay": "broth microdilution", "test system": "ATCC 25922 wild type", "conditions": "no clavulanic acid", "MIC": "12.5 µg/mL"}
{"Compound": "N=C(N)c1ccc(OCCC(CCOc2ccc(C(=N)N)cc2)c2ccccc2)cc1 (centres unmarked)", "organism": "Escherichia coli", "test system": "W3110", "conditions": "in combination, checkerboard, with: rifampicin", "MIC": "6.25 µg/mL"}
{"Compound": "NC[C@H]1O[C@H](O[C@H]2[C@H](O)[C@@H](O[C@H]3O[C@H](CO)[C@@H](O)[C@H](N)[C@H]3O)[C@H](N)C[C@@H]2N)[C@H](O)[C@@H](O)[C@@H]1O", "organism": "Kocuria sp.", "assay": "broth microdilution", "test system": "sugar glider pouch or skin isolate, cation-adjusted Mueller-Hinton broth", "conditions": "16 h, 37 °C, above 90% inhibition", "MIC": "16 µg/mL"}
{"Compound": "C[C@H]1[C@H](NC(=O)/C(=N\\OC(C)(C)C(=O)O)c2csc(N)n2)C(=O)N1S(=O)(=O)O", "organism": "Citrobacter freundii", "assay": "agar dilution", "test system": "ATCC 43864 susceptible", "MIC": "0.125 µg/mL"}
{"Compound": "CN(C)c1ncc(O)c2c1C[C@H]1C[C@H]3[C@H](N(C)C)C(O)=C(C(N)=O)C(=O)[C@@]3(O)C(O)=C1C2=O.Cl.Cl", "organism": "Streptococcus pneumoniae", "test system": "clinical isolates", "MIC": "1 µg/mL"}
{"Compound": "CC(C)C[C@@H]1NC(=O)[C@@H](Cc2ccccc2)NC(=O)[C@H](CCN)NC(=O)[C@@H](NC(=O)[C@H](CCN)NC(=O)[C@@H](N)[C@@H](C)O)CCNC(=O)[C@H]([C@@H](C)O)NC(=O)[C@H](CCN)NC(=O)[C@H](CCN)NC1=O", "organism": "Escherichia coli", "test system": "BW25113", "MIC": "> 200 µg/mL"}
{"Compound": "CN[C@H](CC(C)C)C(=O)N[C@H]1C(=O)N[C@@H](CC(N)=O)C(=O)N[C@H]2C(=O)N[C@H]3C(=O)N[C@H](C(=O)N[C@H](C(=O)O)c4cc(O)cc(O)c4-c4cc3ccc4O)[C@H](O)c3ccc(c(Cl)c3)Oc3cc2cc(c3O[C@@H]2O[C@H](CO)[C@@H](O)[C@H](O)[C@H]2O[C@H]2C[C@](C)(N)[C@H](O)[C@H](C)O2)Oc2ccc(cc2Cl)[C@H]1O", "organism": "Staphylococcus simulans", "assay": "broth microdilution", "test system": "22, cation-adjusted Mueller-Hinton broth", "MIC": "0.084 µM"}
{"Compound": "FC(F)(F)c1ccc(OCCn2c(CNCC34CC5CC(CC(C5)C3)C4)nc3ccccc32)cc1", "organism": "Streptococcus pneumoniae", "test system": "ATCC 49619", "MIC": "8 µg/mL"}
{"Compound": "CCCCCCCCCC(=O)N[C@@H](Cc1c[nH]c2ccccc12)C(=O)N[C@H](CC(N)=O)C(=O)N[C@@H](CC(=O)O)C(=O)N[C@@H]1C(=O)NCC(=O)N[C@@H](CCCN)C(=O)N[C@@H](CC(=O)O)C(=O)N[C@H](C)C(=O)N[C@@H](CC(=O)O)C(=O)NCC(=O)N[C@H](CO)C(=O)N[C@@H]([C@H](C)CC(=O)O)C(=O)N[C@@H](CC(=O)c2ccccc2N)C(=O)O[C@@H]1C", "organism": "Staphylococcus simulans", "assay": "broth microdilution", "test system": "22, Mueller-Hinton broth, Mg2+ 10 mg/L", "conditions": "16 h, 30 °C, with: Ca2+ 10 mM", "MIC": "0.031 µg/mL"}
{"Compound": "N=C(N)c1ccc(OCc2ccccc2COc2ccc(C(=N)N)cc2)cc1", "organism": "Escherichia coli", "test system": "552100", "conditions": "in combination, checkerboard, with: rifampicin", "MIC": "25 µg/mL"}
{"Compound": "c1ccc(OCCn2c(CNC34CC5CC(CC(C5)C3)C4)nc3ccccc32)cc1", "organism": "Streptococcus pneumoniae", "test system": "ATCC 49619", "MIC": "4 µg/mL"}
